{"data": "Results collected from several papers", "BCHE": "Cholinesterase (BCHE, Equus caballus, UniProt P81908)", "note": "Each line is one published result; not all experiments were run side by side. “And” joins repeats or separate records; there may be more than shown. Numbers after ± are the reported error.", "chain of UniProt P81908 (whole entry, looked up)": "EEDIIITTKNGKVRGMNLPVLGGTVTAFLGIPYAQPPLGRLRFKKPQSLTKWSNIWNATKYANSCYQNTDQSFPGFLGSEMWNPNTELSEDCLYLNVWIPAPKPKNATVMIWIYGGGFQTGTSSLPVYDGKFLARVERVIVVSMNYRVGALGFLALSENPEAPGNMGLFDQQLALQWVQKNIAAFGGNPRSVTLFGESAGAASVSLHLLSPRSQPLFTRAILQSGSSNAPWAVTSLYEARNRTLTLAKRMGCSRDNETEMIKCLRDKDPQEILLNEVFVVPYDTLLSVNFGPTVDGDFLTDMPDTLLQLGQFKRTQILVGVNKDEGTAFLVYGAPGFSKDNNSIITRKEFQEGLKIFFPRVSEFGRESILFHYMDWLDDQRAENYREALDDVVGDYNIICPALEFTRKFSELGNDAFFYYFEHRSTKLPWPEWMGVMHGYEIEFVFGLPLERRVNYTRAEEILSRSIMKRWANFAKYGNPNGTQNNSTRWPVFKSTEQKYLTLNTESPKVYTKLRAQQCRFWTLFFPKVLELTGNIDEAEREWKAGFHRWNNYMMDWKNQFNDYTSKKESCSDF", "chain of UniProt Q12809 (whole entry, looked up)": "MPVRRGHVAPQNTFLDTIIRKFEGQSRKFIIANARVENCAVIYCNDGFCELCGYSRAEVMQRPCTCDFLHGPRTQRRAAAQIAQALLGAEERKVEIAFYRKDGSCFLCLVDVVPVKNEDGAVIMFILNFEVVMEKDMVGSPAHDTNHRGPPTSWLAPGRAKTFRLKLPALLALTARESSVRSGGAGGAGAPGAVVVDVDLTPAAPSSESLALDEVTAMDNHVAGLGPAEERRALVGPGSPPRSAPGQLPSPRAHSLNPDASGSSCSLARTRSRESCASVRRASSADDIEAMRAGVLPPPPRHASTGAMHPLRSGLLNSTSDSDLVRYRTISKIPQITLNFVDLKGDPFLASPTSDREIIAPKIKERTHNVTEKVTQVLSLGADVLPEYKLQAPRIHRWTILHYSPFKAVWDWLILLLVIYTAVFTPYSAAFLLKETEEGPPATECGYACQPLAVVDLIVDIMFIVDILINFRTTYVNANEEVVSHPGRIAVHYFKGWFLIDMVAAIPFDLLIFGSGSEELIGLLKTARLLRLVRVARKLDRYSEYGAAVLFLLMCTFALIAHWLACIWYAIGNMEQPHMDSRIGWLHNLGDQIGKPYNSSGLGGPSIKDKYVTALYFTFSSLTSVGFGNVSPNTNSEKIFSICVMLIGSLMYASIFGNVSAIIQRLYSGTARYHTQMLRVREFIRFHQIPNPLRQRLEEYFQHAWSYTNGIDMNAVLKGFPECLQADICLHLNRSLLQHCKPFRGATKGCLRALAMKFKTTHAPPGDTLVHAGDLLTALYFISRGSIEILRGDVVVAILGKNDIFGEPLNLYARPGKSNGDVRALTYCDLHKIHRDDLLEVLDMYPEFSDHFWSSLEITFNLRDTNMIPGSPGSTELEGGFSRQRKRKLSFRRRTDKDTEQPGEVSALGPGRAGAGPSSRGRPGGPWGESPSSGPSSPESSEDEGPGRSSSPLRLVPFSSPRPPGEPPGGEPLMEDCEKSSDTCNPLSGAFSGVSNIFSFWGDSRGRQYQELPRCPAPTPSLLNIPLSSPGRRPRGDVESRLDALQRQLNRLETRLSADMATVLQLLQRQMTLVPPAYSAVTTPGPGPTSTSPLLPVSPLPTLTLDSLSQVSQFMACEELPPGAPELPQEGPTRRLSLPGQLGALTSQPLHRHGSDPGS", "chain of UniProt P21554 (whole entry, looked up)": "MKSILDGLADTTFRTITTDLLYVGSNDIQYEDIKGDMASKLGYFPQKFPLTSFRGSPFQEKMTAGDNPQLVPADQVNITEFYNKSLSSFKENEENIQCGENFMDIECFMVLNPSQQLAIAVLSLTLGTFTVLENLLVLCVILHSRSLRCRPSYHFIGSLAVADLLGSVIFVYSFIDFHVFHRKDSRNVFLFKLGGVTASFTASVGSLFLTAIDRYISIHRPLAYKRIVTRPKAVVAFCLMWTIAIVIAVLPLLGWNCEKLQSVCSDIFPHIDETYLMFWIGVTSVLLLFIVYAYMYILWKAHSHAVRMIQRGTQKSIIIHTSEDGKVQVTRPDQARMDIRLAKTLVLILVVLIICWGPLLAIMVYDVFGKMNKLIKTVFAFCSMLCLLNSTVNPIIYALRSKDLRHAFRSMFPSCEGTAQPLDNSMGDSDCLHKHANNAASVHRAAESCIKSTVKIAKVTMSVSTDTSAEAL", "chain of UniProt Q16678 (whole entry, looked up)": "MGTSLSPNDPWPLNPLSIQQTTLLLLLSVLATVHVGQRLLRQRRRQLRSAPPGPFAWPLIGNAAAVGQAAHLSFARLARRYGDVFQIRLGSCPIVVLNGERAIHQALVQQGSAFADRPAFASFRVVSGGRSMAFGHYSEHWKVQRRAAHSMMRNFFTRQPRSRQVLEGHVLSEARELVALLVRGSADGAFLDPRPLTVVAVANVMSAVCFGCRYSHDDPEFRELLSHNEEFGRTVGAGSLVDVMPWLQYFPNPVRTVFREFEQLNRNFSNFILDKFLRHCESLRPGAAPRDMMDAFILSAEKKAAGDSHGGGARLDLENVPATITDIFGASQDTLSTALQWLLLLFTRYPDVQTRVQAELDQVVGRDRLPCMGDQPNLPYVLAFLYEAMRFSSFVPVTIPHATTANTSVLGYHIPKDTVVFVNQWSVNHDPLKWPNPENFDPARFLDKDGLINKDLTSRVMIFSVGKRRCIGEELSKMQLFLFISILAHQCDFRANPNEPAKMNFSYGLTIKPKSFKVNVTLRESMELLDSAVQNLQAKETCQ", "chain of UniProt Q06124 (whole entry, looked up)": "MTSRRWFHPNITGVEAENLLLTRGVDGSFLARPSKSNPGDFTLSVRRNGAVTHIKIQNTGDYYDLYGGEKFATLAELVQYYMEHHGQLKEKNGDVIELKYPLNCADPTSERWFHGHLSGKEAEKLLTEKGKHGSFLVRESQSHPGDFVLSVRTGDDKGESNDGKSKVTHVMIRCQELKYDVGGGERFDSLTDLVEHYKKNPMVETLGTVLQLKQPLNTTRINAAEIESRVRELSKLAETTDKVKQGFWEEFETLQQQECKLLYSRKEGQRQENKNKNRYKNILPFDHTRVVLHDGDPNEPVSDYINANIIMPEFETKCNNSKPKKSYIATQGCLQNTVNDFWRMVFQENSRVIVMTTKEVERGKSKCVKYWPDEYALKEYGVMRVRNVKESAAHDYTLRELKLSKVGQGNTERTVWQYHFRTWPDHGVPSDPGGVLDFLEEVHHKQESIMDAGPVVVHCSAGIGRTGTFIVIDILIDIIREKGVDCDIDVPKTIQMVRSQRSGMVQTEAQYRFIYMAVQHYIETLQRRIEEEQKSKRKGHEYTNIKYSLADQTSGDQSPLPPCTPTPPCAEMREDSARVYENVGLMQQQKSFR", "chain of UniProt Q99ZW2 (whole entry, looked up)": "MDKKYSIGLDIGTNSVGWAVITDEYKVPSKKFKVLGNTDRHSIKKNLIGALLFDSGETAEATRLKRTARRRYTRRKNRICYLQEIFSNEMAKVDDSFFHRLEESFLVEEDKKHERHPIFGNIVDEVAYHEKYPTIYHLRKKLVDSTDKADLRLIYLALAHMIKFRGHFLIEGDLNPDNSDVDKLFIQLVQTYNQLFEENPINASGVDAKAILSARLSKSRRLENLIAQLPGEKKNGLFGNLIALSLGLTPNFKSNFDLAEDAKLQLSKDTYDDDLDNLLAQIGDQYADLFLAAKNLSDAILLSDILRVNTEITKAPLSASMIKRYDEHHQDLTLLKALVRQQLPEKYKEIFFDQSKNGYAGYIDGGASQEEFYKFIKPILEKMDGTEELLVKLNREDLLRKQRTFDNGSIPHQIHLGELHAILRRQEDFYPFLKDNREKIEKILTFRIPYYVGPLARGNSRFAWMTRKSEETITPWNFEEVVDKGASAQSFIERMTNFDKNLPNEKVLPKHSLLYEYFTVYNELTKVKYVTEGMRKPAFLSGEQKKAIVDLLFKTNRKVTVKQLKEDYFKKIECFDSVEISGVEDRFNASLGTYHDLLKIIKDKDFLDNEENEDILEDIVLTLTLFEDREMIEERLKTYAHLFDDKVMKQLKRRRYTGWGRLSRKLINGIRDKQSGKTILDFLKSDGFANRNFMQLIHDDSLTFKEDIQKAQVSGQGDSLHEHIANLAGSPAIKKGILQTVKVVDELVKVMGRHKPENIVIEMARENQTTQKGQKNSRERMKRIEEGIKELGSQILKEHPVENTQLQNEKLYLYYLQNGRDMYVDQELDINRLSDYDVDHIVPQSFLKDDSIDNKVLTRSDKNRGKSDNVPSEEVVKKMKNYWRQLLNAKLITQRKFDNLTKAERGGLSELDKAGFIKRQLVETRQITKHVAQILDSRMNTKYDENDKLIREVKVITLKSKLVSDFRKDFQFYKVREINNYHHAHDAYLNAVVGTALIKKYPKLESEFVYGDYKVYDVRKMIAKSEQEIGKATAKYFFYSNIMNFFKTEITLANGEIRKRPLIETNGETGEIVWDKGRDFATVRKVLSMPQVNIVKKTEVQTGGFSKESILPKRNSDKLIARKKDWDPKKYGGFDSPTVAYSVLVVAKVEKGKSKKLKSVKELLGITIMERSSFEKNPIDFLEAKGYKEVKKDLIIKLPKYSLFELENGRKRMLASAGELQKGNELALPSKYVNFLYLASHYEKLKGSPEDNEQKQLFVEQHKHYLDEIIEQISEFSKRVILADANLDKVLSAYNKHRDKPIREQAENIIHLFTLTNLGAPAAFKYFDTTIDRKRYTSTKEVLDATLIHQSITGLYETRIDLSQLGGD", "chain of UniProt P19784 (whole entry, looked up)": "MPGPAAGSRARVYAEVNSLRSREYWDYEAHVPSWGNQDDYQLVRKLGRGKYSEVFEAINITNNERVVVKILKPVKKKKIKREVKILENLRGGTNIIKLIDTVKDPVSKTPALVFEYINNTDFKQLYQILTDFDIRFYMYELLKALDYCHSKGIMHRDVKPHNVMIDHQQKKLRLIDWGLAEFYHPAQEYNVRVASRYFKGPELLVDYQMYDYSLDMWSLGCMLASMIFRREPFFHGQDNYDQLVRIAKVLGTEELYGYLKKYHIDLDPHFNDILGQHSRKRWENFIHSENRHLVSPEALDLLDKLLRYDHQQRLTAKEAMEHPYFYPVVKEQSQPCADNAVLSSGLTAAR"}
{"Molecule": "CC(=O)Nc1ccc2ccn(-c3cc(Nc4ccccc4)n4ncc(C#N)c4n3)c2c1", "target or system": "CSNK2A2 (Homo sapiens, UniProt P19784)", "test": "target engagement in cells, BRET", "endpoint": "IC50", "value": "0.0251 µM"}
{"Molecule": "C[C@H]1CNCCc2ccc(Cl)cc21", "system": "male Sprague-Dawley rat, plasma", "conditions": "subcutaneous, 1 mg/kg, single dose", "endpoint": "Tmax", "value": "15 min"}
{"Molecule": "CNC(C)Cc1ccc2c(c1)OCO2 (racemic)", "test": "visual analog scale, measured: Dizzy", "system": "human", "conditions": "oral, 1.5 mg/kg, mean over session, unit not given", "scale": "reference: pre-dose baseline", "endpoint": "mood rating", "value": 15.4}
{"Molecule": "Oc1cc2c(cc1O)[C@H]1c3ccccc3CN[C@@H]1CC2 (racemic)", "target or system": "Carbamate kinase (Giardia intestinalis, UniProt A8BB85)", "test": "enzyme activity, ATP luminescence", "endpoint": "IC50", "value": "20.6 µM"}
{"Molecule": "CCCCC(O)(Cn1cncn1)c1ccc(Cl)cc1Cl (stereo not shown)", "target or system": "Androgen receptor (AR, Homo sapiens, UniProt P10275)", "test": "reporter gene, antagonist", "system": "T47D-ARE", "conditions": "24 h, with: testosterone 20 nM", "endpoint": "IC50", "value": "23.2 µM"}
{"Molecule": "Nc1ccc2cc3ccccc3cc2c1", "target or system": "KCNH2 (Homo sapiens, UniProt Q12809)", "test": "thallium influx, inhibitor, confirmation", "system": "hERG-transduced cells", "endpoint": "IC50", "value": "17 µM and 17.5 µM"}
{"Molecule": "O=C(O)c1ccccc1-c1c2ccc(=O)c([As]3SCCS3)c-2oc2c([As]3SCCS3)c(O)ccc12", "target or system": "PTPN11 (Homo sapiens, UniProt Q06124)", "test": "enzyme activity, inhibitor", "system": "crude Escherichia coli lysate", "conditions": "120 min, 37 °C, with: pNPP", "endpoint": "IC50", "value": "6 µM"}
{"Molecule": "CC1=C(C(=O)NC(=O)c2cnccn2)C(c2ccc(F)cc2)NC(=O)N1 (stereo not shown)", "target or system": "BCHE", "endpoint": "IC50", "value": "4.84 ± 0.01 µM"}
{"Molecule": "COc1ccc(CNC(=O)Oc2cccc3c2OC(C)(C)C3)cc1", "target or system": "Neutral cholesterol ester hydrolase 1 (Mus musculus, UniProt Q8BLF1)", "test": "enzyme activity, inhibitor, competitive ABPP", "system": "mouse brain membrane proteome", "conditions": "with: FP-rhodamine probe", "endpoint": "IC50", "value": "0.2 µM"}
{"Molecule": "CCC(=O)CCCCC[C@@H]1NC(=O)[C@H]2CCCCN2C(=O)[C@H]([C@@H](C)CC)NC(=O)[C@H](Cc2cn(OC)c3ccccc23)NC1=O", "target or system": "HDAC (Lucilia cuprina egg nuclear extract)", "test": "enzyme activity, inhibitor, fluorometric", "endpoint": "IC50", "value": "0.72 µM"}
{"Molecule": "C#Cc1ccc2ccc3cccc4ccc1c2c34", "target or system": "Cytochrome P450 1B1 (CYP1B1, Homo sapiens, UniProt Q16678)", "test": "enzyme activity, inhibitor", "conditions": "5 s, pH 7.4", "endpoint": "IC50", "value": "< 0.05 µM"}
{"Molecule": "CCc1c(C(=O)NCCc2ccc(N3CCCCC3)cc2)[nH]c2ccc(N=C=S)cc12", "target or system": "CNR1 (Homo sapiens, UniProt P21554)", "test": "β-arrestin1 recruitment, negative allosteric modulator, BRET", "system": "Neuro2a", "conditions": "30 min, with: anandamide 500 nM", "endpoint": "IC50", "value": "0.0575 µM"}
{"Molecule": "O=C(NCCCCn1ccc2ccc(F)cc21)Oc1ccccc1", "target or system": "BCHE", "test": "enzyme activity, inhibitor, HPLC", "endpoint": "IC50", "value": "7.3 µM"}
{"Molecule": "Nc1ncnc2c1ncn2Cc1nc2ccccc2c2cc[nH]c12", "target or system": "human PDE4 from U-937 cells", "test": "enzyme activity, inhibitor", "conditions": "20 min, pH 7.5, 25 °C, with: [3H]cAMP 1.10 µM", "endpoint": "IC50", "value": "6.1 µM"}
{"Molecule": "C=C(NC(=O)C(=C)NC(=O)c1csc(C2=N[C@@H]3c4csc(n4)[C@H]4NC(=O)c5csc(n5)[C@H]([C@](C)(O)[C@@H](C)O)NC(=O)[C@H]5CSC(=N5)/C(=C/C)NC(=O)[C@H]([C@@H](C)O)NC(=O)c5csc(n5)[C@]3(CC2)NC(=O)[C@H](C)NC(=O)C(=C)NC(=O)[C@H](C)NC(=O)[C@H]([C@@H](C)CC)N[C@@H]2C=Cc3c([C@H](C)O)cc(nc3[C@H]2O)C(=O)O[C@@H]4C)n1)C(N)=O", "target or system": "PSMB6 (Homo sapiens, UniProt P28072)", "test": "caspase-like activity, inhibitor", "system": "purified 20S proteasome", "conditions": "15 min preincubation, 37 °C, with: Ac-Nle-Pro-Nle-Asp-AMC substrate", "endpoint": "IC50", "value": "0.59 ± 0.06 µM"}
{"Molecule": "COc1cc2nc(N3CCN(C(=O)c4ccco4)CC3)nc(N)c2cc1OC", "target or system": "SLCO1B1 (Homo sapiens, UniProt Q9Y6L6)", "test": "transport, inhibitor", "conditions": "10 (unit not given), pre-incubation, with: estrone-3-sulfate", "endpoint": "IC50", "value": "78.9 ± 22.8 µM"}
{"Molecule": "CN[C@@](C)(C[18F])C(=O)O", "target or system": "MDA-MB-468 tumour model", "system": "host not given, kidney", "conditions": "15 min, tumour-bearing", "endpoint": "tracer uptake", "value": "24 %ID/g"}
{"Molecule": "echistatin", "target or system": "Integrin alpha-V/beta-3 (Homo sapiens, UniProt P05106+P06756)", "test": "inhibitor, solid-phase binding", "conditions": "with: vitronectin", "endpoint": "IC50", "value": "0.004 µM"}
{"Molecule": "CC1(C)[C@@H](OC(=O)CCC(=O)O)CC[C@]2(C)[C@H]3C(=O)C=C4[C@@H]5C[C@@](C)(C(=O)O)CC[C@]5(C)CC[C@@]4(C)[C@]3(C)CC[C@@H]12", "target or system": "CRISPR-associated endonuclease Cas9/Csn1 (cas9, Streptococcus pyogenes serotype M1, UniProt Q99ZW2)", "test": "ssDNA target strand cleavage, inhibitor", "conditions": "with: FAM ssDNA 87 nt, no PAM", "endpoint": "IC50", "value": "> 50 µM"}
{"note": "For quick reference, copied from above:"}
{"Molecule": "CN[C@@](C)(C[18F])C(=O)O", "target or system": "MDA-MB-468 tumour model", "system": "host not given, kidney", "conditions": "15 min, tumour-bearing", "endpoint": "tracer uptake", "value": "24 %ID/g"}
{"Molecule": "C[C@H]1CNCCc2ccc(Cl)cc21", "system": "male Sprague-Dawley rat, plasma", "conditions": "subcutaneous, 1 mg/kg, single dose", "endpoint": "Tmax", "value": "15 min"}
{"Molecule": "CCC(=O)CCCCC[C@@H]1NC(=O)[C@H]2CCCCN2C(=O)[C@H]([C@@H](C)CC)NC(=O)[C@H](Cc2cn(OC)c3ccccc23)NC1=O", "target or system": "HDAC (Lucilia cuprina egg nuclear extract)", "test": "enzyme activity, inhibitor, fluorometric", "endpoint": "IC50", "value": "0.72 µM"}
